Measured values gathered from unrelated publications.
A part holds a random share of what one study measured. Substitutions count along the parent as printed.

Series 1 — technique: protein binding microarray; molecule type: double-stranded DNA, one strand shown; medium: in vitro; concentration: not given; baseline: not given; direction: higher = stronger binding; endpoint: E-score
Target: Histone acetyltransferase KAT6A, winged helix 1, GST fusion (KAT6A, Homo sapiens, UniProt Q92794, residues 1-85)
Setting: 8-mer, flanks averaged, mean of 2 arrays, mostly near background
Target sequence (chain): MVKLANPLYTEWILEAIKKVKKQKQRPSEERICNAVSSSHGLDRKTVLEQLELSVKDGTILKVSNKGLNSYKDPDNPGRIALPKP
CATATATC: -0.0911
AGCGGCTG: 0.239
CCGTATGC: 0.32
GCTTTGAC: 0.018
AGAACCCC: -0.191
GTACGCAA: 0.105
ACCCGTCG: 0.421
AACCTCCC: -0.031
GATCTACA: -0.17
ACGCCAAC: 0.0153
ACGCCGAC: 0.387
ACGACTTG: -0.15
CGCTGCTA: 0.09
GGATTAAA: -0.0278
CTGGAGGC: -0.0322
AGGACGTG: -0.0938
ACCTTGAT: -0.204
GTTAGGCA: -0.169
CAAGCTTG: -0.0236
CCACCGTA: 0.0744
CCGGGACA: 0.26
CTTTTGAA: -0.0905

Series 2 — technique: DHFR PCA, deep sequencing; medium: yeast; added: (+)-ABA 0.0091 µM; baseline: wild-type fitted maximum; direction: higher = stronger binding; endpoint: relative binding score
Target: ABI1, truncated, D143A, DHFR fusion (Arabidopsis thaliana)
Setting: methotrexate growth selection, single substitutions
Parent: PYL1, truncated, DHFR fusion (Arabidopsis thaliana); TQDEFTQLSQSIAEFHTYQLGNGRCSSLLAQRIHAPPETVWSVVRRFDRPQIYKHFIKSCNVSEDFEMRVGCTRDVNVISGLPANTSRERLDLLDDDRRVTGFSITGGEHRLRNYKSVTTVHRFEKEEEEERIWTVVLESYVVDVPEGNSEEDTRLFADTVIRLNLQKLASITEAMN; partner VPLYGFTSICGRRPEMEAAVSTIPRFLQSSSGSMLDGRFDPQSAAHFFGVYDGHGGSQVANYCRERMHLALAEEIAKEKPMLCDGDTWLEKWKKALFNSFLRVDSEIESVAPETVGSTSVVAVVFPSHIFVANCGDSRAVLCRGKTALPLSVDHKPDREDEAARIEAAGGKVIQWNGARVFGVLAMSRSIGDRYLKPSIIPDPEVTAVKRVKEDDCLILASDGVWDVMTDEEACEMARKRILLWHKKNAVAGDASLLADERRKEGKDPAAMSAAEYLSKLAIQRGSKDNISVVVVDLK
D159V: -1.76%
N22E: 52.7%
S27E: -5.65%
A175R: 22.4%
A13P: -2.27%
N85F: 71.2%
T154L: 2.56%
F124S: -0.12%
S11P: 45.8%
S140K: -5.44%
P50R: -1.29%
D153K: -4.17%
E127V: 31.4%
G81A: 11.5%
E139W: 2.46%
R132F: 2.27%
N177G: 39.9%

Series 3 — technique: RNA Bind-n-Seq; molecule type: RNA; medium: in vitro; concentration: 365 nM; baseline: no-protein control; direction: higher = stronger binding; endpoint: RBNS enrichment (R)
Target: RNA binding protein fox-1 homolog 2, RRM domain, GST-SBP tag (RBFOX2, Homo sapiens, UniProt O43251-10, residues 100-194)
Setting: natural RNA segment, single round, ends assumed
Residues (chain): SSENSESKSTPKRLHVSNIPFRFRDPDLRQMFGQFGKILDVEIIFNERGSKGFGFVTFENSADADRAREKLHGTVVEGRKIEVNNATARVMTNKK
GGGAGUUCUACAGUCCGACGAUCUGAGGUGUCCAGAGGCGGCGGCAGCUGGCAGUGCCCUCAGCCCCCAAGUGUCCAGCCUGGCACUUCCCAUUCAGGCCACCUGCUUUGGGUCAACAGUUCCUUUGCCAGCAUGGAAUUCUCGGGUGCCAA: 0.382
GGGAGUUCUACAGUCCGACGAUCAUCGCGCUCAGGACUUCACUGAAGAUUCACGUGCAAUUGAACGCUUCAUUAAACAAAAGAAAACCUCAGUCUGCUGUCUGGGAACCCGUGGAAAGAGCUGGAAGCGGGCGUGGAAUUCUCGGGUGCCAA: 0.899
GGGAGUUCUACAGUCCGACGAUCGUGCUUUGCACAUAGUAGUCACUCAGUGUUUGUUAAAUAAAGCUAUUAGUGUCAUUAAAAUUCAAAAGACAGUAUAAUGUGUGUUUUUAGAUAUUUUGUGUAAAAAUUAAUGGAAUUCUCGGGUGCCAA: 0.986
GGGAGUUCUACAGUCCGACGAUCUCAGAUCUCAGAAUACUUAACCAAGCCAUUACAUCUUAAAACAAAACAAGUAGCAUACAUUUUGUAAUUAACAUUGAUAAACACUGUGAUUUUUUUGGUUAAAACUUUUUUGGAAUUCUCGGGUGCCAA: 0.599
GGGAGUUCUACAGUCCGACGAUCGGCUCAGAUCUGUCCAAGGGCGGAGGCAGGUGGUAUUGAAAAGGAAACGAAUCCUUGAGAGGAGCACUGUCCCGUCCCUUGCUCCUUAUGGCUGGUCCUCCUUCUUGCUCUGGAAUUCUCGGGUGCCAA: 0.375
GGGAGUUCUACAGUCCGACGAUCGAGGCAAUGUAGUAGUUUCACUUGAAGGAAAACCAUUAUAAAAUGACAGUCAAGUGCCAUCUGGAUCUUAAGGAGCUUCCAUUUCUCCAGCUCAGUCCAUUGGAAUAGUAUGGAAUUCUCGGGUGCCAA: 0.521
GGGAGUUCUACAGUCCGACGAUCACUGACGUUUAUGCCUGGUGAUAGCAUGUCCCGAGAAGCAUGGACAUGGAGUUUUGUUUUAAUAAACAGAAAAAAAAAACCCGACUGAUUUUUAAUGUCUUGGAUUUGGUUGGAAUUCUCGGGUGCCAA: 7.3
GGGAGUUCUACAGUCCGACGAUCCAGACUGCCUUCCCGGGAUUUCUCUAACCUCUAGAGCGAUGGGAAUCAGCCUUGGACAGUGCCGCCUUCCAGAGCAGAAUCACUGAGCCCCACGGCUGAAGCUGCAUCUGUGGAAUUCUCGGGUGCCAA: 0.267
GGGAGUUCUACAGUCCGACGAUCGAGUUGGAGAGAGGUGGGUCCUAUUGUAACAACCGCUAUAAUUUAUAUGGACUAUAUUGUCUCCCUGUCCUUGUUCUGAUAAUGUACAGACUCAGUUUUUCUUAUGUUAUUGGAAUUCUCGGGUGCCAA: 0.641
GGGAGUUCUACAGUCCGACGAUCACUAAUGGGUACUCUGAACUCAUUAACAUUGACAUCUGCAACAGGAGGCAACAGGGAAAAAAUCUCAUCUUCUUUUCCAGUAGAAAAUAGUUUGUGAAAUGAUGAGGGCAUGGAAUUCUCGGGUGCCAA: 5.71
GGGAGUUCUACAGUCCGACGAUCAUUUGUAAGCAUCCCCCAAAUUAUUCUGAAGGUUUUUUGAUGAUGGAGGUAUGAUAGGUUUAUCACACAGCCUAAGGCAGAUUUUGUUUUGUCUGUACUGACUCUAUCUGUGGAAUUCUCGGGUGCCAA: 0.454
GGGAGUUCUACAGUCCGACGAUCCCUGCUCUGAAAAUAGGUGCCCAGCACCCCACCGCUGCCUGCACAUGCUUCUUAGCGCUGACUUCCAGGAGCAAGAGUGAAGAGGCAGCACGUAGAACUCCCUGCAUAAGUGGAAUUCUCGGGUGCCAA: 0.856

Series 4 — technique: RNA Bind-n-Seq; molecule type: RNA; medium: in vitro; concentration: 200 nM; setting: whole 134-nt RNA, ends assumed; added: 150 mM KCl; baseline: input library; direction: higher = stronger binding; endpoint: log2 enrichment
Target: Ras GTPase-activating protein-binding protein 1, full length (G3BP1, Homo sapiens, UniProt Q13283)
UniProt Q13283, sequence (whole entry, looked up): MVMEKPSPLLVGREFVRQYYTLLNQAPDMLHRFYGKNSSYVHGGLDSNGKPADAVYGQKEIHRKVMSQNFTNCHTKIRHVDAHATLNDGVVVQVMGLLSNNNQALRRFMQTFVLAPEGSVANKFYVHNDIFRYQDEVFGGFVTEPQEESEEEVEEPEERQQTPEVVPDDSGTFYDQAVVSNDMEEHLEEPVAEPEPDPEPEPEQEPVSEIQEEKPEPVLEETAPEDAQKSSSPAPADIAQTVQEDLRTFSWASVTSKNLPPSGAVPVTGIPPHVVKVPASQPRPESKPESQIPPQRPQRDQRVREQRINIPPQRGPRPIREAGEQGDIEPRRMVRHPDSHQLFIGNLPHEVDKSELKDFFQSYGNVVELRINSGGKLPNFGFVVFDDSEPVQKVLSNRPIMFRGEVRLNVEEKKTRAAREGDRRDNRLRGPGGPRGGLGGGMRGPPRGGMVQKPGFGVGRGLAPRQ
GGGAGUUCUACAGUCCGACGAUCGGUAGCAAGAGCUCCAGAGAGAAGUCGAGGAAGAGAGAGACGGGGUCAGAGAGAGCGCGCGGGCGUGCGAGCAGCGAAAGCGACAGGGGCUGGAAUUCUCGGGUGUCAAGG: 0.745
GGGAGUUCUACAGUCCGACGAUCCUCAAGUCCUGUGCUACACAUCGUAUGUACCGAAUCGGGCCGGGCCGGCCGGGGAAAGUAUUAUGUUACGCCGUUCGGAUCUGCACUUCCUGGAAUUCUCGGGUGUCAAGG: -0.277
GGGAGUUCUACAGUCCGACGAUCACCAUGCAGGUGGGCAUCUUUGGGAAGUGGGGCAAGGGGGGGAUAGGGAGGGGGGUAACACUUUGGGAACAGGUGGAAACAGGUCGUUUCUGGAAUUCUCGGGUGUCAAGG: 0.843
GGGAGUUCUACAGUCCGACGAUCCAAGUCCUGUGCUACACAUCGUAUGUACCGAAUCGGGGAAAGGGAAAGGAAAGGGGAAAGUAUUAUGUUACGCCGUUCGGAUCUGCACUUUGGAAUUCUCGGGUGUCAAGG: 0.371
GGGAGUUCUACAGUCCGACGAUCUCCUGUGCUACACAUCGUAUGUACCGAAUCGGGGAAAAAGGAAAAAGGGGAAAAAGGGGAAAGUAUUAUGUUACGCCGUUCGGAUCUGCAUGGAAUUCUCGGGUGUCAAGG: 0.019
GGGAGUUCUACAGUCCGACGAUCCACAGACAACACGCACCCACACAGACACAGAGGGAAGGGGUUGGGCUGGGGACAGGGUGCACAGCAGGGCGGGGUAGGACCCCAGCCCCUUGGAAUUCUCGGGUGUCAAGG: 1.82
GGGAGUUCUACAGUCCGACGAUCUGGCCCUGGUGGCAUGCAGGGAGGAAGAGGUGGCCUCAUGGAUCGUGGUGGUCCCGGUGGAAUGUUCAGAGGUGGCCGUGGUGGAGACAGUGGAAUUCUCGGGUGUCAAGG: 0.0256
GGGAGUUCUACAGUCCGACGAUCGUCCUGUGCUACACAUCGUAUGUACCGAAUCGGUUUUUUGGUUUUUUGGUUUUUUGGGGAAAGUAUUAUGUUACGCCGUUCGGAUCUGCAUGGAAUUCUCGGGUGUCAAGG: -1.1
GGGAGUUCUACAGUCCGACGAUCUAACUUUAGAGGAGGAUCUGAUUGAUAUGGCAGUGGACGUGGAUUUGGGGAUGGCUAUAAUGGGUAUGGAGGAGGACCUGGAGGUGGCAAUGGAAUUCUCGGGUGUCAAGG: 0.602
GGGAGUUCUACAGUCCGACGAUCCCUGUGCUACACAUCGUAUGUACCGAAUCGGGCCCCCCGGGGCCCCCCGGCCCCCCGGGGAAAGUAUUAUGUUACGCCGUUCGGAUCUGCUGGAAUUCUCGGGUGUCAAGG: -0.592

Series 5 — target: CCNE1, cyclin fold, Cln2 fusion (human); technique: yeast growth competition, sequencing; medium: yeast; setting: weak parent motif; baseline: not given; direction: higher = stronger binding; endpoint: normalised enrichment score
Parent: REV3L docking peptide (human); PPVIIKYIIINRF
I8A: 0.313
F13A: 0.361
P2A: 0.654
K6A: 0.177
R12A: 0.694
N11A: 0.465

Repeated from above (series 3):
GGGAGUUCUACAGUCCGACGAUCUGAGGUGUCCAGAGGCGGCGGCAGCUGGCAGUGCCCUCAGCCCCCAAGUGUCCAGCCUGGCACUUCCCAUUCAGGCCACCUGCUUUGGGUCAACAGUUCCUUUGCCAGCAUGGAAUUCUCGGGUGCCAA: 0.382
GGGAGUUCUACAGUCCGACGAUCAUCGCGCUCAGGACUUCACUGAAGAUUCACGUGCAAUUGAACGCUUCAUUAAACAAAAGAAAACCUCAGUCUGCUGUCUGGGAACCCGUGGAAAGAGCUGGAAGCGGGCGUGGAAUUCUCGGGUGCCAA: 0.899
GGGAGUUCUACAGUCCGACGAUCGAGGCAAUGUAGUAGUUUCACUUGAAGGAAAACCAUUAUAAAAUGACAGUCAAGUGCCAUCUGGAUCUUAAGGAGCUUCCAUUUCUCCAGCUCAGUCCAUUGGAAUAGUAUGGAAUUCUCGGGUGCCAA: 0.521
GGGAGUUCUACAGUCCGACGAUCGGCUCAGAUCUGUCCAAGGGCGGAGGCAGGUGGUAUUGAAAAGGAAACGAAUCCUUGAGAGGAGCACUGUCCCGUCCCUUGCUCCUUAUGGCUGGUCCUCCUUCUUGCUCUGGAAUUCUCGGGUGCCAA: 0.375
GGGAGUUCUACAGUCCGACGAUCACUAAUGGGUACUCUGAACUCAUUAACAUUGACAUCUGCAACAGGAGGCAACAGGGAAAAAAUCUCAUCUUCUUUUCCAGUAGAAAAUAGUUUGUGAAAUGAUGAGGGCAUGGAAUUCUCGGGUGCCAA: 5.71
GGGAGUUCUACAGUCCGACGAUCGUGCUUUGCACAUAGUAGUCACUCAGUGUUUGUUAAAUAAAGCUAUUAGUGUCAUUAAAAUUCAAAAGACAGUAUAAUGUGUGUUUUUAGAUAUUUUGUGUAAAAAUUAAUGGAAUUCUCGGGUGCCAA: 0.986
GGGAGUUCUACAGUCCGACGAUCCAGACUGCCUUCCCGGGAUUUCUCUAACCUCUAGAGCGAUGGGAAUCAGCCUUGGACAGUGCCGCCUUCCAGAGCAGAAUCACUGAGCCCCACGGCUGAAGCUGCAUCUGUGGAAUUCUCGGGUGCCAA: 0.267
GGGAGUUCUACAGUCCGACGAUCAUUUGUAAGCAUCCCCCAAAUUAUUCUGAAGGUUUUUUGAUGAUGGAGGUAUGAUAGGUUUAUCACACAGCCUAAGGCAGAUUUUGUUUUGUCUGUACUGACUCUAUCUGUGGAAUUCUCGGGUGCCAA: 0.454
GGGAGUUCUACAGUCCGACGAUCCCUGCUCUGAAAAUAGGUGCCCAGCACCCCACCGCUGCCUGCACAUGCUUCUUAGCGCUGACUUCCAGGAGCAAGAGUGAAGAGGCAGCACGUAGAACUCCCUGCAUAAGUGGAAUUCUCGGGUGCCAA: 0.856
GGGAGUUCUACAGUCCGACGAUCACUGACGUUUAUGCCUGGUGAUAGCAUGUCCCGAGAAGCAUGGACAUGGAGUUUUGUUUUAAUAAACAGAAAAAAAAAACCCGACUGAUUUUUAAUGUCUUGGAUUUGGUUGGAAUUCUCGGGUGCCAA: 7.3
